Assay results gathered from unrelated publications.
Protocols differ between the studies behind these lines. “And” joins repeats or separate records; there may be more than shown. ± gives the spread as reported.

COc1ccc(C)cc1NC(=O)OC1CC2CCCC(C1)N2Cc1ccc(CC[18F])cc1 (centres unmarked) — tissue uptake (BALB/c mice, EMT6 tumour, heart; 2 h): 1.22 ± 0.18 %ID/g
CCCC[C@H](NC(=O)CN1CCC(NC(=O)CN2CCC(NC(=O)CN3CCN(CC(=O)O)CCN(CC(=O)O)CCN(CC(=O)O)CC3)CC2)CC1)C(=O)N[C@H]1CC(=O)NCCCC[C@@H](C(N)=O)NC(=O)[C@H](Cc2c[nH]c3ccccc23)NC(=O)[C@H](CCCNC(=N)N)NC(=O)[C@@H](Cc2ccccc2)NC(=O)[C@H](Cc2c[nH]cn2)NC1=O [gallium-68 labelled] — tissue uptake (C57BL/6J mice male B16-F10 tumour, liver; 1 h post injection, unblocked): 0.5 ± 0.1 %ID/g
C=Cc1cc(O)cc2nc(-c3ccc(O)c([76Br])c3)oc12 — tissue uptake (female C57BL/6 mouse, lung; 1 h, high dose): 0.27 ± 0.09 %ID/g
CCNc1cc2[o+]c3cc(NCC)c(C)cc3c(-c3ccccc3C(=O)OCCOCC[18F])c2cc1C — tissue uptake (rat, heart; 60 min): 1.32 %ID/g and 1.77 %ID/g
N=C(N)NCc1ccc(C(=O)NCCCC[C@H](NC(=O)N[C@@H](CCC(=O)O)C(=O)O)C(=O)O)cc1[131I] — tissue uptake (SCID mouse, PC-3 xenografts, lungs; 14 h): 0.09 ± 0.03 %ID/g
O=C(c1ccc(F)cc1)C1CCN(C2Cc3c(cccc3OCC[18F])CC2O)CC1 (single isomer, unassigned; (-)) — tissue uptake (Sprague-Dawley rat, male, heart; intravenous, dose not given, 120 min): 0.336 ± 0.016 %ID/g
COc1cc2ccnc(Cc3ccc(O[11CH3])c(OC)c3)c2cc1OC — tissue uptake (Sprague-Dawley rats, blood; intravenous, 0.5 h): 0.108 ± 0.02 %ID/g
CN[C@](C)(C[18F])C(=O)O — tissue uptake (SCID mouse SK-OV-3 xenograft, pancreas; 15 min post injection): 42 ± 2.8 %ID/g

A few entries again:
C=Cc1cc(O)cc2nc(-c3ccc(O)c([76Br])c3)oc12 — tissue uptake (female C57BL/6 mouse, lung; 1 h, high dose): 0.27 ± 0.09 %ID/g
